Published values pooled from the literature.
Protocols differ between the studies behind these lines. Several values in a cell are separate wells, animals, samples, runs or records. ± marks the error that the study gave.

`N#C[C@@]1(n2ccc(N)nc2=O)O[C@H](CO)[C@@H](O)[C@H]1O` has a micronucleated cells of 0.23% (CHO; 31 µM, without S9).
For `O=C(O)C(F)(F)C(F)(F)C(F)(F)F`, “LDH activity in medium” read 5.27 mU/mL (hTERT-RPTEC-OAT1; LDH release; culture medium; concentration not given, 24 h, 96-well plate).
`CCCCCCCCCCOc1cc2c(O)c(C(=O)OCC)cnc2cc1OCC` gave an IC50 of greater than 100 µM (HEK293T; cytotoxicity; 3 days).
With `O=C1CCP(=S)(c2ccccc2)CC1` the viability was 1.67% (PC-3; trypan blue; IC50, 72 h).
`CC(C)CC(=O)OC[C@H]1O[C@@](C#N)(c2ccc3c(N)ncnn23)[C@H](O)[C@@H]1O` gave an efflux ratio of 1.89 (Caco-2 monolayer; 90 µM, 2 h, with: zosuquidar 25 µM).
`Oc1ccc(C(c2ccc(O)cc2)(C(F)(F)F)C(F)(F)F)cc1` gave a viable cells of 71.9 ± 8.77% (HepG2 spheroids, dissociated; annexin V-FITC/PI flow cytometry; 40 µM, 24 h).
The LDH release of `O=S(=O)(O)C(F)(F)C(F)(F)C(F)(F)C(F)(F)C(F)(F)C(F)(F)C(F)(F)C(F)(F)F` is reported as 70.2 mU/mL and 15.9 mU/mL and 72.6 mU/mL and 11.5 mU/mL (hTERT-RPTEC-OAT1; concentration not given, Transwell, apical-to-basolateral addition).
`CC[C@H](C)[C@H](NC(=O)[C@H](CCCNC(=N)N)NC(=O)[C@@H](N)C(C)C)C(=O)N[C@@H](CO)C(=O)NCC(=O)N[C@@H](CCCNC(=N)N)C(=O)NCC(=O)N[C@@H](Cc1ccccc1)C(=O)N[C@@H](CS)C(=O)N[C@H](C(=O)N[C@@H](CCCCN)C(=O)N[C@@H](CCSC)C(=O)N[C@@H](Cc1ccccc1)C(=O)N[C@@H](Cc1ccc(O)cc1)C(=O)N[C@H](C(=O)N[C@@H](CCCCN)C(=O)N1CCC[C@H]1C(=O)N[C@H](C(=O)N[C@@H](CCCCN)C(=O)N[C@@H](Cc1ccc(O)cc1)C(=O)N[C@@H](CCCCN)C(=O)NCC(=O)N1CCC[C@H]1C(=O)N[C@H](C(=O)N[C@@H](CCCCN)C(=O)N[C@@H](CCCCN)C(=O)NCC(=O)N[C@@H](CCC(=O)O)C(=O)N[C@@H](CCCCN)C(=O)N[C@@H](CC(C)C)C(=O)NCC(=O)N[C@H](C(=O)N[C@@H](CC(C)C)C(=O)N[C@@H](CC(C)C)C(=O)N1CCC[C@H]1C(=O)N[C@@H](CC(C)C)C(=O)N[C@@H](CCC(N)=O)C(=O)N[C@@H](CCCCN)C(=O)N[C@H](C(=O)N[C@@H](Cc1ccc(O)cc1)C(=O)O)C(C)C)[C@@H](C)O)[C@@H](C)CC)[C@@H](C)CC)[C@@H](C)CC)C(C)C` gave a CC50 of 96.8 µM (HaCaT; cell viability, MTT; 24 h).
`CCCCCCCCCC(=O)N[C@@H](Cc1c[nH]c2ccccc12)C(=O)N[C@H](CC(N)=O)C(=O)N[C@@H](CC(=O)O)C(=O)N[C@@H]1C(=O)NCC(=O)N[C@@H](CCCNC(=O)CCC(=O)N2Cc3ccccc3-c3c(nnn3CCC[C@H](NC(=O)CCCCC[N+]3=C(C=CC4=CC(=CC=C5N(C)c6ccccc6C5(C)C)CCC4)C(C)(C)c4ccccc43)C(=O)NCCCCNC(=O)CCC(=O)N3Cc4ccccc4-c4c(nnn4CCOCCOCCOCCNC(=O)CN4CCN(CC(=O)NCCNC(=O)c5cccc(O)c5O)CCN(CC(=O)NCCNC(=O)c5cccc(O)c5O)CCN(CC(=O)NCCNC(=O)c5cccc(O)c5O)CC4)-c4ccccc43)-c3ccccc32)C(=O)N[C@@H](CC(=O)O)C(=O)N[C@H](C)C(=O)N[C@@H](CC(=O)O)C(=O)NCC(=O)N[C@H](CO)C(=O)N[C@@H]([C@H](C)CC(=O)O)C(=O)N[C@@H](CC(=O)c2ccccc2N)C(=O)O[C@@H]1C` has an EC50 of greater than 64 µM (MCF7; cytotoxicity; 5 days, 5% FBS).
`CN(CCC(Oc1ccc(C(F)(F)F)cc1)c1ccccc1)N=O` (stereo not drawn) gave an LOAEL of less than 1 µM (TK6 expressing CYP2B6; micronucleus induction; 24 h, without S9).
Under “lowest cytotoxic concentration”, `C/C1=C/C(=O)O[C@@H]2C[C@@H](CC[C@H](C)/C=C\C=C\CC1)O[C@@](O)([C@@H]1CSC(=O)N1CO)C2` is recorded as greater than 1 µM (MCF7; MTT).
`CC[C@H](C)[C@H](NC(=O)[C@H](C)NC(=O)[C@H](CO)NC(=O)[C@@H](NC(=O)[C@H](CCCCN)NC(=O)[C@H](CCSC)NC(=O)[C@H](CC(C)C)NC(=O)[C@H](CO)NC(=O)[C@H](CC(C)C)NC(=O)[C@H](CCCNC(=N)N)NC(=O)[C@H](Cc1c[nH]cn1)NC(=O)[C@@H](NC(=O)[C@H](CC(C)C)NC(=O)[C@H](CC(N)=O)NC(=O)[C@H](Cc1ccccc1)NC(=O)CN)[C@@H](C)CC)[C@@H](C)O)C(=O)N[C@@H](CCCCN)C(=O)N[C@@H](CCCCN)C(=O)N[C@H](C(=O)N[C@@H](CCCNC(=N)N)C(=O)N[C@@H](CC(N)=O)C(=O)N1CCC[C@H]1C(=O)N[C@@H](CCCCN)C(=O)NCC(=O)N1CCC[C@H]1C(=O)N[C@@H](CC(C)C)C(=O)N[C@H](C(=O)N[C@@H](CC(C)C)C(=O)N[C@@H](CCCNC(=N)N)C(=O)N[C@@H](CC(C)C)C(=O)NCC(=O)N[C@@H](C)C(=O)N[C@@H](C)C(=O)N1CCC[C@H]1C(=O)N[C@H](C(=O)N[C@H](C(=O)N[C@@H](CCC(N)=O)C(=O)N1CCC[C@H]1C(=O)N[C@H](C(=O)N[C@@H](CCCNC(=N)N)C(=O)N[C@@H](CCCNC(=N)N)C(=O)N[C@H](C(=O)N[C@@H](Cc1ccccc1)C(=O)N1CCC[C@H]1C(=O)N[C@@H](CCCNC(=N)N)C(=O)NCC(=O)N[C@@H](CC(C)C)C(=O)N1CCC[C@H]1C(=O)O)C(C)C)[C@@H](C)O)[C@@H](C)O)C(C)C)[C@@H](C)CC)[C@@H](C)CC` gave a CC50 of 149 µM (HaCaT; cell viability, MTT).
`COc1ccc2c(c1OC)C(=O)c1c(cc(C)c(O)c1OC)C2=O` gave a cell viability of 53.3 ± 10.9% (HepaRG co-cultured with HK-2; MTT; 266.67 µM, 48 h; baseline: untreated control).
For `COc1cc2c(OCCCC#N)c3c(c(-c4ccc5c(c4)OCO5)c2cc1OC)C(=O)OC3`, “cytotoxicity fold increase” read 5 fold (HEK293; complete medium; concentration not given, 72 h; baseline: diphyllin).
With `CC(=O)OC[C@H]1O[C@@H](Oc2cc(O)cc3cc4oc(C)cc(=O)c4c(O)c23)[C@H](O)[C@@H](O)[C@@H]1O` the cell viability was 91.1 ± 3.09% (HK-2 co-cultured with HepaRG; MTT; 66.67 µM, 48 h; baseline: untreated control).
`CC(C)C[C@H](NC(=O)[C@@H](NC(=O)[C@H](CCCNC(=N)N)NC(=O)[C@H](CCC(N)=O)NC(=O)[C@H](Cc1ccccc1)NC(=O)[C@H](Cc1ccc(O)cc1)NC(=O)[C@H](CC(N)=O)NC(=O)[C@H](Cc1c[nH]c2ccccc12)NC(=O)[C@@H](NC(=O)[C@H](CCCNC(=N)N)NC(=O)[C@H](CCCCN)NC(=O)[C@@H](N)Cc1ccccc1)C(C)C)C(C)C)C(=O)N[C@H](C(=O)N[C@@H](CCCCN)C(=O)N[C@@H](CCCCN)C(=O)N[C@@H](Cc1ccc(O)cc1)C(=O)N[C@@H](C)C(N)=O)C(C)C` has a hemolysis of 49.9 ± 1.4% (rat erythrocytes; 200 µM, 60 min, 37 °C).
With `COc1cc2nc(c1)CNCc1cc(OC)cc(n1)CNC2` the LD50 was 3.23 mM (Friedreich's ataxia fibroblasts; MTT).
The viable cells of `Cc1cc(C(C)(C)c2ccc(O)c(C)c2)ccc1O` is reported as 41.9 ± 2.45% (HepG2 spheroids, dissociated; annexin V-FITC/PI flow cytometry; 10 µM, 96 h).
The cell viability of `Cc1cc2c(c(O)c1O)C(=O)c1c(O)cc(O)cc1C2=O` is reported as 90.1 ± 7.39% (HK-2 co-cultured with HepaRG; MTT; 16.67 µM, 24 h; baseline: untreated control).
The transport ratio of `CC[C@H](C)[C@H](NC(=O)[C@H](C)NC(=O)[C@H](Cc1c[nH]cn1)NC(=O)CNC(=O)CNC(=O)CNC(=O)c1ccc2c(c1)C(=O)OC21c2ccc(O)cc2Oc2cc(O)ccc21)C(=O)N[C@@H](Cc1ccc(O)cc1)C(=O)N1CCC[C@H]1C(=O)N[C@@H](CCCNC(=N)N)C(=O)N[C@@H](Cc1c[nH]cn1)C(N)=O` is reported as 4.2% (hCMEC/D3 monolayers; BBB permeability, Transwell, measured: CF-labelled compound; EGM-2 medium; concentration not given, 1 h, apical to basal; baseline: fluorescence added apically).
`CC1=C(O)C(=O)C=C2C1=CC=C1[C@@]2(C)CC[C@@]2(C)[C@@H]3C[C@](C)(C(=O)O)CC[C@]3(C)CC[C@]12C` has an apoptotic cells of 3.4 ± 2.45 (COS-7; 10 µM, 24 h, 0.1% DMSO, unit not given; baseline: vehicle control).
`O=c1ccc2ccccc2o1` — result for “probability of response”: 63% (HepaRG 3D spheroids; nuclear DNA structure, high-content screening; concentration not given, 168 h, 10% FBS medium).
For `C[C@@H](O)[C@H](NC(=O)CNC(=O)CNC(=O)CNC(=O)c1ccc2c(c1)C(=O)OC21c2ccc(O)cc2Oc2cc(O)ccc21)C(=O)N[C@@H](Cc1ccccc1)C(=O)N[C@@H](Cc1ccccc1)C(=O)N[C@@H](Cc1ccc(O)cc1)C(=O)NCC(=O)NCC(=O)N[C@@H](CO)C(=O)N[C@@H](CCCNC(=N)N)C(=O)NCC(=O)N[C@@H](CCCCN)C(=O)N[C@@H](CCCNC(=N)N)C(=O)N[C@@H](CC(N)=O)C(=O)N[C@@H](CC(N)=O)C(=O)N[C@@H](Cc1ccccc1)C(=O)N[C@@H](CCCCN)C(=O)N[C@H](C(=O)N[C@@H](CCC(=O)O)C(=O)N[C@@H](CCC(=O)O)C(=O)N[C@@H](Cc1ccc(O)cc1)C(N)=O)[C@@H](C)O`, the transport ratio was 4.8% (hCMEC/D3 monolayers; BBB permeability, Transwell, measured: CF-labelled compound; EGM-2 medium; concentration not given, 1 h, apical to basal; baseline: fluorescence added apically).
The viability of `O=C1c2ccccc2C(=O)c2ccccc21` is reported as 20.2 ± 2.88% (HK-2 co-cultured with HepaRG; MTT; 266.67 µM, 48 h; baseline: untreated control).
With `COP(=O)(OC)OC=C(Cl)Cl` the IC10 was 61 µM (MCF7 AREc32 cells; cell confluency, IncuCyte imaging; 24 h, nominal concentration).
For `O=C(O)C(F)(F)C(F)(F)C(F)(F)C(F)(F)C(F)(F)C(F)(F)C(F)(F)C(F)(F)C(F)(F)F`, the LDH release was 5.68 mU/mL and 6.87 mU/mL and 4.77 mU/mL and 5.96 mU/mL (hTERT-RPTEC-OAT1; concentration not given, 96-well plate).
`Cc1cn([C@H]2C[C@H](F)[C@@H](CO)O2)c(=O)[nH]c1=O`: “minimal cytotoxic concentration” greater than 250 µM (HEL; cell morphology).
For `CC[C@H](C)[C@H](NC(=O)CN)C(=O)N[C@@H](CC(C)C)C(=O)N[C@@H](CC(=O)O)C(=O)N[C@@H](C)C(=O)N[C@H](C(=O)N[C@@H](CC(C)C)C(=O)N[C@@H](CC(=O)O)C(=O)N[C@@H](C)C(=O)N[C@H](C(=O)N[C@@H](CCCCN)C(=O)N[C@@H](C)C(=O)N[C@H](C(=O)N[C@@H](C)C(=O)N[C@@H](CCCCN)C(=O)N[C@@H](C)C(=O)N[C@H](C(=O)N[C@@H](CCCCN)C(=O)N[C@@H](C)C(=O)N[C@@H](CCCCN)C(=O)N[C@@H](C)C(=O)NCC(N)=O)[C@@H](C)CC)[C@@H](C)CC)[C@@H](C)CC)[C@@H](C)CC`, the hemolysis was 92% (sheep red blood cells; 256 µM, 1 h, 37 °C; baseline: Triton X-100).
`Oc1ccc(C2(c3ccc(O)cc3)c3ccccc3-c3ccccc32)cc1`: “late apoptotic cells” 35.7 ± 0.7% (HepG2 spheroids; annexin V-FITC/PI flow cytometry; 1 µM, 96 h).
For `C=C(C)[C@H]1Cc2c(ccc3c2O[C@@H]2COc4cc(OC)c(OC)cc4[C@@H]2C3=O)O1`, the IC50 was 0.4 ± 0.1 µM (THLE-2 transduced with Ad-CYP2D6; metabolism-induced cytotoxicity; 48 h, 3D Matrigel spots).
